Measured values of several laboratories.
Protocols differ between the studies behind these lines. ± marks the error that the study gave.

Structure (SMILES) | assay | test system | conditions | tissue uptake
CCCC[C@H](NC(=O)CNC(=O)CNC(=O)CN1CCN(CC(=O)O)CCN(CC(=O)O)CC1)C(=O)N[C@H]1CC(=O)NCCCC[C@@H](C(N)=O)NC(=O)[C@H](Cc2c[nH]c3ccccc23)NC(=O)[C@H](CCCNC(=N)N)NC(=O)[C@@H](Cc2ccccc2)NC(=O)[C@H](Cc2c[nH]cn2)NC1=O [gallium-67 labelled] |  | female C57 mice, B16/F1 melanoma, bone | intravenous, 0.037 MBq, 0.5 h | 1.95 ± 0.08 %ID/g
CN(C)c1ccc(-c2nc3ccc(OCCCCCN4CCN5CCN(CC4)CC(=O)[O][Al]([18F])[O]C(=O)C5)cc3s2)cc1 |  | ICR mouse, muscle | intravenous, 2 min | 3.28 ± 0.47 %ID/g
O=C([O-])CN1CCN(CC(=O)[O-])CCN(CC(=O)[O-])CCN(CC(=O)[O-])CC1.[64Cu+2] |  | healthy athymic nude mice, liver | intravenous, 24 h | 1.04 %ID/g
CC(C)[C@H](NC(=O)[C@@H]1CCCN1C(=O)[C@H](CCCNC(=N)N)NC(=O)[C@H](CS)NC(=O)[C@H](Cc1c[nH]c2ccccc12)NC(=O)[C@H](CCCNC(=N)N)NC(=O)[C@@H](Cc1ccccc1)NC(=O)[C@H](Cc1c[nH]cn1)NC(=O)[C@H](CCC(=O)O)NC(=O)[C@H](CS)NC(=O)[C@H](CS)NC(=O)[C@@H]1CC(=O)N[C@@H](CCCNC(=N)N)C(=O)NCC(=O)N[C@@H](CC(=O)O)C(=O)N[C@H](Cc2ccc(O)cc2)C(=O)N1)C(N)=O [technetium-99m labelled] |  | C57 mouse, female, B16/F1 melanoma, bone | intravenous, 0.037 MBq, 4 h | 0.59 ± 0.18 %ID/g
O=C([O-])CN1CCN(CC(=O)[O-])CCN(CC(=O)NCCc2ccc3c(c2)C2C=CCC2C(c2cc4c(cc2Br)OCO4)N3)CCN(CC(=O)[O-])CC1.[111In+3] (stereo not shown) |  | mouse, Hec50 endometrial tumour, uterus | 0.5 h post injection | 1.46 ± 0.23 %ID/g
CN1C(=O)[C@@H](Cc2ccc(O)c(I)c2)NC(=O)CNC(=O)[C@H](Cc2ccc3ccccc3c2)NC(=O)[C@H](CCCNC(=N)N)NC(=O)[C@H]1CCCNC(=O)c1ccc(CNC(=O)CN2CCN(CC(=O)O)CCN(CC(=O)O)CCN(CC(=O)O)CC2)cc1 [lutetium-177 labelled] | item: 177Lu radioactivity | female CB-17 SCID mice, Daudi xenograft, kidney | intravenous, 0.16 nmol per mouse, 6 h | 2.52 ± 0.33 %ID/g
C[C@H](CN(C)Cc1ccccc1)NC(=O)c1ccc(-c2noc(C(F)(F)[18F])n2)cc1 | PET imaging | female Sprague-Dawley rats, hippocampus | intravenous, 1 min | 2.37 ± 0.74 SUV
CCCC[C@@H]1NC(=O)[C@@H](NC(=O)[C@H](CCC(=O)O)NC(=O)CNC(=O)CN2CCN(CC(=O)O)CCN(CC(=O)O)CCN(CC(=O)O)CC2)CCCCNC(=O)C[C@@H](C(N)=O)NC(=O)[C@H](C(C)C)NC(=O)[C@@H]2CCCN2C(=O)[C@H](CCCNC(=N)N)NC(=O)CNC(=O)[C@H](Cc2c[nH]c3ccccc23)NC(=O)[C@H](CCCNC(=N)N)NC(=O)[C@@H](Cc2ccccc2)NC(=O)[C@H](Cc2c[nH]cn2)NC(=O)[C@H](CCC(=O)O)NC1=O [gallium-67 labelled] |  | C57 mice with B16/F1 melanoma, stomach | intravenous, 0.037 MBq, 24 h | 0.07 ± 0.04 %ID/g
NC12CNCCNCC(NCc3ccc(CNC(=O)CCCC(=O)NCc4ccc(-c5nncnn5)cc4)cc3)(CNCCNC1)CNCCNC2.[64Cu+2] |  | athymic nude mice SW1222 xenograft, spleen | 12 h post injection, 24 h accumulation interval, together with: huA33-TCO pretargeting | 0.65 ± 0.17 %ID/g
CCCC[C@H](NC(=O)CNC(=O)CNC(=O)CN1CCN(CC(=O)O)CCN(CC(=O)O)CCN(CC(=O)O)CC1)C(=O)N[C@H]1CC(=O)NCCCC[C@@H](C(N)=O)NC(=O)[C@H](Cc2c[nH]c3ccccc23)NC(=O)[C@H](CCCNC(=N)N)NC(=O)[C@@H](Cc2ccccc2)NC(=O)[C@H](Cc2c[nH]cn2)NC1=O [copper-64 labelled] |  | female C57 mouse, B16/F1 melanoma, liver | intravenous, 0.037 MBq, 4 h | 9.61 ± 1.34 %ID/g

A few entries again:
Structure (SMILES) | assay | test system | conditions | tissue uptake
O=C([O-])CN1CCN(CC(=O)[O-])CCN(CC(=O)[O-])CCN(CC(=O)[O-])CC1.[64Cu+2] |  | healthy athymic nude mice, liver | intravenous, 24 h | 1.04 %ID/g
